Results from different studies.
Lines come from different studies, so protocols differ. ± gives the spread as reported.
Organism: Mycobacterium tuberculosis

Cc1ccc(C(=O)OC(C)C)c(N2CCN(Cc3ccccc3OC(F)F)CC2)n1 — IC50 (resazurin; wild type; 168 h, nutrient-starved): 8000 nM
COc1ccc2c(=O)c(C)c(-c3ccc(N4CCCCC4)cc3)[nH]c2c1 — IC50 (microbial growth; H37RV): 810 nM
CC(C)=CCC/C(C)=C/CNCCNC1C2CC3CC(C2)CC1C3 (stereo not drawn) — IC50 (bacterial growth, inhibitor; mmpL3-TetON): 150 nM
N=C1C(=Cc2ccc(SCc3ccc(Cl)cc3)o2)C(=O)N=C2SC(c3cccs3)=NN12 — IC50 (resazurin; wild type; 168 h, nutrient-starved): 8000 nM
Cc1c(-c2ccc(N3CCCCC3)cc2)[nH]c2cc(F)cc(F)c2c1=O — IC50 (bacterial growth; H37Rv; Wayne model, oxygen-limited): 400 ± 90 nM
CC(C)c1cc(N)c2cc(NC(=O)C(=O)Nc3ccc4nc(C(C)C)cc(N)c4c3)ccc2n1 — IC50 (resazurin; wild type; 168 h, nutrient-starved): 500 nM
O=C(Nc1ccc(F)c(F)c1F)NC12CC3CC(CC(C3)C1)C2 — IC50 (microbial growth): 40 nM
COC(=O)C(=O)[C@H](CC(C)C)NC(=O)[C@H](CCCCN)NC(=O)[C@H](Cc1ccccc1)NC(=O)OCc1ccccc1 — IC50 (bacterial growth; THP-1 macrophages, Mtb-lux; 24 h): 16400 ± 4400 nM
Cc1c(-c2ccc(Oc3ccc(OC(F)(F)F)cc3)nc2)[nH]c2ccccc2c1=O — IC50 (microbial growth; H37RV): 1970 nM
CC(C)n1ncc2c(C(=O)NCC(c3cccs3)N3CCOCC3)cc(-c3ccccc3)nc21 (stereo not drawn) — IC50 (bacterial growth, inhibitor; mmpL3-TetON): 220 nM
COCCOC(=O)N1CCC2(CCCN(Cc3ccc(Cl)c(Cl)c3)C2)C1 (stereo not drawn) — IC50 (resazurin; wild type; 168 h, nutrient-starved): 8000 nM
CCCCCCC#Cc1cncc(-c2nnc(SC[C@H]3O[C@@H](n4ccc(=O)[nH]c4=O)[C@@H]4OC(C)(C)O[C@@H]43)n2C)c1 — IC50 (microbial growth, resazurin; ERDMAN): 26000 nM
COc1ccc(CN2CCN(c3nc(C)ccc3C(=O)OC(C)C)CC2)cc1Cl — IC50 (resazurin; wild type; 168 h, nutrient-starved): 4000 nM
N#CC1(C(=O)NCCCNc2ccc(C(F)(F)F)cn2)CCCC1 — IC50 (microbial growth): 830 nM
Cc1ccn2c(-c3csc(Nc4ccccn4)n3)c(C)nc2c1 — IC50 (ATP level; H37Rv; anaerobic): 5000 nM

Some of these lines once more:
Cc1c(-c2ccc(Oc3ccc(OC(F)(F)F)cc3)nc2)[nH]c2ccccc2c1=O — IC50 (microbial growth; H37RV): 1970 nM
